Experimental data of several laboratories.
Values joined by “and” are separate records of one study, mostly repeats; a detail may differ.

`capreomycin` has an MIC of 2 µg/mL (Mycobacterium tuberculosis; resazurin microtiter; H37Ra; 2 weeks, 37 °C).
`oseltamivir carboxylate` has an EC50 of 2.6 µM (Influenza B virus; cytopathic effect, MTS; MDCK).
The MIC of `bovine serum albumin` is reported as over 200 µg/mL (Mycobacterium tuberculosis; H37Rv).
With `insulin human` the fold change was 1.26 (measured: HDAC2 mRNA; EcoHIV-infected mouse, brain; i.p., dose not given; reference: PBS).
`heparin sodium`: “subjects with AEs leading to discontinuation” 0% (healthy Chinese adult volunteers; continuous intravenous infusion, 8 IU/kg/h, 5 days).
For `HVLVMSATRR`, the lymphocytes was 93% and 84% and 90% (peptide, C57BL/6J mice; Alzet osmotic pump, 3 mg/kg, 8 weeks; reference: leukocytes).
For `Ro 31-8220`, viral titre read “no effect” (influenza A virus H1N1; concentration not given).
The inhibition of `aspterric acid` is reported as 98% (hypocotyl length; Arabidopsis thaliana Col-0 seeds; 25 µg/mL, seed germination; reference: water control).
`caspofungin`: “radial growth ratio” 0.516 and 0.392 and 0.558 and 0.449 and 0.434 and 0.468 (Aspergillus fumigatus; wild type, minimal medium; concentration not given; reference: untreated).
For `oseltamivir carboxylate`, the EC50 was 5.4 µM (Influenza A virus; viral replication, MTS; MDCK, H1N1).
`ETTLKSF` gave an inhibition of ~48% and 48% (Plasmodium falciparum; merozoite invasion; peptide, 3D7; 400 µg/mL, 20 h, biotinylated peptide).
For `oligomycin A`, the maximum inhibition was 11.9% (human coronavirus OC43; virus-induced cell death; MRC-5).
`oseltamivir carboxylate` gave an EC50 of 4 µM (Influenza A virus H1N1; visual CPE score).
